Published values pooled from the literature.
Lines come from different studies, so protocols differ. Values joined by “and” are separate records of one study, mostly repeats; a detail may differ. Numbers after ± are the reported error.
UCHL1: Ubiquitin carboxyl-terminal hydrolase isozyme L1 (UCHL1, Homo sapiens, UniProt P09936)
UniProt P09936, sequence (whole entry, looked up): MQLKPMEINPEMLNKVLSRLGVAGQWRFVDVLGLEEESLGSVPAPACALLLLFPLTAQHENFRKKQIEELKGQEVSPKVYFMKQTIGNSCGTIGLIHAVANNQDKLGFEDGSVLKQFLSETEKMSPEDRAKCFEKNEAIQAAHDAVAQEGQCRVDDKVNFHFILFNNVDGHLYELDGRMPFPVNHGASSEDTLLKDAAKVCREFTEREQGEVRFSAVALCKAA

SMILES | tested on | assay | setting | how to read | quantity | result
COc1ccc(NC(=O)c2c(Nc3ccccc3)sc(C#N)c2NC(=O)CNc2ccc(Cl)cc2)cc1 | HepG2 | flow cytometry | IC50, 24 h | – | cells in Apoptosis | 8.23 ± 0.23%
CC(C)(C)c1cc(O)ccc1O | HepG2 | high content imaging, item: DNA structure | 24 h, distribution mode 1 | – | point of departure | 16.6 µM
CC(=O)c1nn(-c2ccc(C)cc2)/c(=N/N=C(\C)c2ccc(NC(=O)c3ccccc3)cc2)s1 | HepG2 | MTT | 0.312 µM | – | cytotoxicity | 94.9%
Cc1c(C)c2c(c(C)c1O)CCC(C)(COc1ccc(CC3SC(=O)NC3=O)cc1)O2 (centres unmarked) | HepG2 | high content imaging, item: nuclear size | 24 h, distribution mode 1 | – | point of departure | 37.2 µM
CC(=O)Nc1ccc(/C(C)=N/N=c2\sc(C(C)=O)nn2-c2ccc(C)cc2)cc1 | HepG2 | MTT | 10 µM | – | cytotoxicity | 51.2%
CCOC(=O)/C=C\C(=O)OCC | HepG2 | item: glutathione | 24 h, distribution mode 1 | – | point of departure | 10.5 µM
COc1ccc(-n2nc(C(C)=O)s/c2=N\N=C(/C)c2ccc(NC(=O)c3ccccc3)cc2)cc1 | HepG2 | – | 10 µM | – | toxicity | 96.9%
Nc1ccn([C@H]2CC[C@@H](CO)O2)c(=O)n1 | HepG2 | qPCR | 0.2 µM, 10 days, 2 | baseline: untreated | mitochondrial DNA content | 94.7 ± 3.4%
CCc1ccc(CCOc2ccc(CC3SC(=O)NC3=O)cc2)nc1 (centres unmarked) | HepG2 | CellTiter-Glo, item: cellular ATP | 24 h, distribution mode 1 | – | point of departure | 4.47 µM
Cc1cccc(C)c1NC(=O)C(C#N)=Cc1ccc(OC(F)F)cc1 | UCHL1 | covalent, intact protein LC-MS | 12.5 µM | – | labelling | 28.3%
CCOC(=O)c1nn(-c2cccc(Cl)c2)/c(=N/N=C(\C)c2ccc(NC(=O)c3ccccc3)cc2)s1 | HepG2 | MTT | 5 µM | – | cytotoxicity | 97%
CN(C)C(=O)c1csc(C(=O)CCl)c1 | UCHL1 | covalent, intact protein LC-MS | 12.5 µM | – | labelling | 16.3%
COc1ccc(NC(=O)c2c(Nc3ccccc3)sc(C(=O)NN=Cc3ccc(OC)c(O)c3)c2NC(C)=O)cc1 | HepG2 | flow cytometry | IC50, 24 h | – | cells in G1 | 49.5 ± 3.54%
O=C(O)Cc1ccccc1Nc1c(Cl)cccc1Cl | HepG2 | high content imaging, item: nuclear size | 24 h, distribution mode 2 | – | point of departure | 692 µM and 871 µM
CC(=O)c1nn(-c2ccc(Cl)cc2)/c(=N/N=C(\C)c2ccc(NC(=O)c3ccc(Cl)cc3)cc2)s1 | HepG2 | – | 5 µM | – | toxicity | 38.1%
O=C(/C=C/c1cccc(S(=O)(=O)Nc2ccccc2)c1)NO | HepG2 | – | 25 µg/mL | baseline: untreated | IL-1β mRNA level | decreased
Cc1nc2ccccc2n(CC(=O)Nc2ccc(C(=O)Nc3cccc(Cl)c3)cc2)c1=O | HepG2 | Annexin V-FITC/PI staining | 2.3 µM | – | late apoptotic cells | 0.52 ± 0.09%

A few entries again:
SMILES | tested on | assay | setting | how to read | quantity | result
COc1ccc(NC(=O)c2c(Nc3ccccc3)sc(C#N)c2NC(=O)CNc2ccc(Cl)cc2)cc1 | HepG2 | flow cytometry | IC50, 24 h | – | cells in Apoptosis | 8.23 ± 0.23%
CN(C)C(=O)c1csc(C(=O)CCl)c1 | UCHL1 | covalent, intact protein LC-MS | 12.5 µM | – | labelling | 16.3%
